Assay results of several laboratories.
Protocols differ between the studies behind these lines. Values joined by “and” are separate records of one study, mostly repeats; a detail may differ.

| Compound | species | medium | route | dose | setting | half-life |
| --- | --- | --- | --- | --- | --- | --- |
| CC1=C(O)C(=O)C=C2C1=CC=C1[C@@]2(C)CC[C@@]2(C)[C@@H]3C[C@](C)(C(=O)NCCOCCOCCOCCOCC(=O)N[C@H](C(=O)N4C[C@H](O)C[C@H]4C(=O)N[C@@H](C)c4ccc(-c5scnc5C)cc4)C(C)(C)C)CC[C@]3(C)CC[C@]12C | male C57BL/6 mouse | plasma | intraperitoneal | 20 mg/kg | – | 8.6 h |
| COc1cc(N2CCN(C(=O)C3CCCN3)CC2)ccc1Nc1ncc(Cl)c(Nc2ccccc2P(C)(C)=O)n1 (stereo not drawn) | mouse | plasma | oral | 10 mg/kg | – | 3.4 h |
| NS(=O)(=O)NCC(F)(F)c1ccccc1F | mouse | plasma | oral | 5 mg/kg | – | 4.5 h |
| COC(=O)c1ccc2c(c1)NC(=O)/C2=C(\Nc1ccc2c(c1)CCN2C(=O)CN1CCOCC1)c1ccccc1 | CD-1 mouse | plasma | intravenous | 10 mg/kg | – | 0.8 h |
| COc1cc2c(cc1OC)CC(=O)N(C[C@H]1CCCN(CCOc3ccc(F)cc3)C1)CC2 | male C57BL/6 mouse | plasma | intraperitoneal | 20 mg/kg | – | 0.88 h |
| Brc1ccccc1-c1nnc(CSc2nnnn2-c2ccccc2)o1 | male C57BL/6 mouse | plasma | intraperitoneal | 10 mg/kg | – | 0.49 h |
| Nc1ccn(C[C@@H](CO)OCP(=O)(O)OCCCS(=O)(=O)CCCCCCCCCCCCCC2CCC2)c(=O)n1 | mouse | plasma | intravenous | 3 mg/kg | single dose | 0.7 h |
| C[N+]1(CC(=O)OC2CCCCCCCCCCC2)CCCCC1 | mouse | plasma | intraperitoneal | 5 mg/kg | single dose | 4.6 h |
| CCc1nc(N)nc(N)c1C#C[C@H](C)c1cc(-c2ccncc2)ccc1OC | mouse | plasma | oral | 16 mg/kg | single dose | 0.19 h |
| N#Cc1cnc2cc(OCC3CCNCC3)c(F)cc2c1Nc1cc(F)c(OCc2cccc(Cl)n2)cc1Cl | female CD-1 mouse | plasma | intravenous | 5 mg/kg | – | 8 h |
| CN(C)CCNC(=O)/C=C/C(Cc1ccccc1)Nc1ccnc2cc(Cl)ccc12 (stereo not drawn) | CD-1 mouse | plasma | oral | 5 mg/kg | single dose | 8.83 h |
| C=CC(=O)Nc1cccc(Cn2ncc3cnc(Nc4cnn(CCOC)c4)nc32)c1 | male BALB/c mouse | plasma | oral | 30 mg/kg | – | 1.22 h |
| CN1CCC(N[C@@H]2CCc3[nH]c4c(C(N)=O)ccc(-c5ccccc5Cl)c4c3C2)CC1 | mouse | plasma | oral | 10 mg/kg | – | 12 h and 6.95 h |
| CCCC[C@@H]1NC(=O)[C@H](Cc2ccc(O)cc2)NC(=O)[C@@H]2CCCN2C(=O)[C@H](CC(=O)O)NC(=O)[C@H](C)NC(=O)[C@H](Cc2ccccc2)NC(=O)[C@@H]2CSCCC(=O)N3CN(CN(C3)C(=O)CCSC[C@@H](C(=O)N[C@@H](C)C(N)=O)NC1=O)C(=O)CCSC[C@H](NC(C)=O)C(=O)N[C@@H](CC(C)(C)C)C(=O)N1CCC[C@H]1C(=O)N[C@@H](CCC(=O)O)C(=O)N[C@H](CCCCNC(=O)CCc1cn(CCOCCOCCOCCN(CCOCCOCCOCCC(=O)N[C@@H](C)C(=O)N[C@@H](CCCCNC(=N)N)C(=O)N[C@@H](CC(=O)O)C(=O)N[C@H]3CSCCC(=O)N4CN5CN(C4)C(=O)CCSC[C@H](NC(=O)[C@H](CC(C)C)NC(=O)[C@@H]4CCCN4C(=O)[C@H](CC(N)=O)NC(=O)[C@H](C(C)C)NC(=O)[C@H](CC(C)C)NC(=O)[C@@H]4C[C@@H](O)CN4C3=O)C(=O)N[C@@H](CC(C)C)C(=O)N[C@@H](Cc3c[nH]cn3)C(=O)N3CCC[C@H]3C(=O)N[C@H](CC(=O)O)C(=O)N[C@@H](Cc3c[nH]c4ccccc34)C(=O)N[C@@H](CCCCNC(=N)N)C(=O)N[C@H](C(N)=O)CSCCC5=O)CCOCCOCCOCCn3cc(CCC(=O)NCCCC[C@H]4NC(=O)[C@H](CCC(=O)O)NC(=O)[C@@H]5CCCN5C(=O)[C@H](CC(C)(C)C)NC(=O)[C@@H](NC(C)=O)CSCCC(=O)N5CN6CN(C5)C(=O)CCSC[C@H](NC(=O)[C@H](Cc5ccc(O)cc5)NC(=O)[C@@H]5CCCN5C4=O)C(=O)N[C@@H](Cc4ccccc4)C(=O)N[C@@H](C)C(=O)N[C@@H](CC(=O)O)C(=O)N4CCC[C@H]4C(=O)N[C@@H](Cc4ccc(O)cc4)C(=O)N[C@@H](CCCC)C(=O)N[C@H](C(=O)N[C@@H](C)C(N)=O)CSCCC6=O)nn3)nn1)C(=O)N1CCC[C@H]1C(=O)N[C@@H](Cc1ccc(O)cc1)C(=O)N2 | mouse | plasma | intraperitoneal | 15 mg/kg | – | ~2 h |
| CCC/C(=C\C1=C(OC)C(=O)c2ccccc2C1=O)C(=O)NOC | mouse | plasma | oral | 25 mg/kg | – | 22 h |
| COc1cc(OC)c(F)c(/C=C/c2cnc3ccn(S(=O)(=O)c4cn(CCF)cn4)c3n2)c1F | CD-1 mouse | plasma | oral | 10 mg/kg | – | 1.9 h |
| COC(=O)N[C@H]1CC[C@@H](Nc2cc(NCc3ccccc3F)n3ncc(C(C)C)c3n2)CC1 | female BALB/c mouse | plasma | oral | 10 mg/kg | – | 2.75 h |
| O=C(O)c1ccc(O)c(CO)c1 | male C57BL/6 mouse | plasma | oral | 4 mg/kg | – | 1.24 h |
| O=C(NCCCCc1ccccc1)n1c(=O)oc2cc(-c3ccc(F)cc3)ccc21 | CD-1 mouse | plasma | intraperitoneal | 10 mg/kg | – | 7.63 h |
| CC(=O)N[C@@H](Cc1ccc(O)cc1)CN(CC(=O)N[C@@H](CCCCN)CN(CC(=O)N[C@@H](Cc1ccccc1)CN(CC(=O)N[C@H]1CCCCNc2c(F)c(F)c(c(F)c2F)S(=O)(=O)c2c(F)c(F)c(c(F)c2F)NCCCC[C@@H](CN(CC(=O)N[C@@H](C)CN(CC(N)=O)S(C)(=O)=O)S(C)(=O)=O)NC(=O)CN(S(=O)(=O)CC(C)C)C[C@H](CC(C)C)NC(=O)CN(S(=O)(=O)CCN)C1)S(=O)(=O)CC(C)C)S(=O)(=O)CCN)S(C)(=O)=O | C57BL/6 mouse | plasma | intraperitoneal | 50 mg/kg | – | 6 h |
| COc1cccc(OCCN2CCC[C@H](CN3CCc4cc(OC)c(OC)cc4CC3=O)C2)c1 | female C57BL/6 mouse | plasma | intraperitoneal | 20 mg/kg | – | 0.58 h |

| Compound | species | medium | route | dose | setting | half-life |
| --- | --- | --- | --- | --- | --- | --- |
| Cc1ccc(CN2C(=O)/C(=N\c3ccc(Cl)cc3Br)c3ccccc32)cc1 | C57BL/6 mouse | plasma | intraperitoneal | 20 mg/kg | – | 9.61 h |
| CCCCCCCCCCCCCCCC(=O)N[C@@H](CCC(=O)NCCCC[C@H](NC(=O)[C@H](CC(=O)O)NC(=O)[C@H](CO)NC(=O)[C@@H](NC(=O)[C@H](Cc1ccccc1)NC(=O)[C@@H](NC(=O)CNC(=O)[C@H](CCC(N)=O)NC(=O)[C@H](CO)NC(=O)[C@@H](N)Cc1c[nH]cn1)[C@@H](C)O)[C@@H](C)O)C(=O)N[C@@H](CO)C(=O)N[C@@H](CCC(=O)O)C(=O)N[C@@H](Cc1ccc(O)cc1)C(=O)N[C@@H](CC(C)C)C(=O)N[C@@H](CC(=O)O)C(=O)N[C@@H](CO)C(=O)N[C@@H](CCC(=O)O)C(=O)N[C@@H](CCCNC(=N)N)C(=O)N[C@@H](C)C(=O)N[C@@H](CCCNC(=N)N)C(=O)N[C@@H](CC(=O)O)C(=O)N[C@@H](Cc1ccccc1)C(=O)N[C@H](C(=O)N[C@@H](C)C(=O)N[C@@H](Cc1c[nH]c2ccccc12)C(=O)N[C@@H](CC(C)C)C(=O)N[C@@H](CCC(=O)O)C(=O)N[C@@H](C)C(=O)NCC(=O)NCC(=O)O)C(C)C)C(=O)O | mouse | plasma | subcutaneous | – | – | ~5 h |
| COc1cc2c(Oc3ccc(Nc4nn(C)cc4C(=O)NC4CCCCC4)cc3F)ccnc2cc1OCCCCCCC(=O)NO | mouse | plasma | intraperitoneal | 10 mg/kg | – | 8.41 h |
| C[C@H]1CN(C(=O)c2cn(-c3ccnc(N)n3)c3cc(C#CC4(O)CCCCC4)ccc23)CCN1 | CD-1 mouse | plasma | intravenous | 1 mg/kg | – | 1.41 h |
| CC1=C(/C=C/C(=O)N2CCN(C(N)=O)CC2)C(C)(C)CCC1 | female mouse | plasma | oral | 120 mg/kg | single dose | 1.09 h |
| COc1ccc2c(c1)CCn1c[n+]3c(c1-2)-c1ccc(OC)cc1CC3 | male C57BL/6 mouse | plasma | intraperitoneal | 10 mg/kg | single dose | 2.3 h |
| CCOc1c(C(C)(C)O)sc2cnc(Nc3ccc(N4CCC(N5CC6(COC6)C5)CC4)cc3OC)nc12 | male C57BL/6 mouse | plasma | intravenous | 3 mg/kg | – | ~11 h |
| Cc1ccc2oc(-c3c4c(N)n[nH]c(=O)c4nn3-c3ccc(NC(=O)/C=C/CN(C)C)cc3)c(C)c2c1 | mouse | plasma | intravenous | 1 mg/kg | – | 1.39 h |
| CCOC(=O)c1nc2cc(Cl)c(Cl)cc2nc1N1CCN(C(=O)Nc2ccc(N3CCNCC3)cc2)CC1 | male mouse | plasma | intravenous | 3 mg/kg | – | 4.35 h |
| C=CCC1C(=O)C=C(OC)C2(OC)C(C)C(c3ccc4c(c3)OCO4)OC12 (single isomer, unassigned; (-)) | male C57BL/6 mouse | blood | intravenous | 5 mg/kg | – | 0.62 h |
| CCCCC(CC)CNC(=N)NC(=N)NCCCCCCCCNC(=N)NC(=N)NCC(CC)CCCC (stereo not drawn) | female BALB/c mouse | plasma | intraperitoneal | 5 mg/kg | single dose | 5.15 h |
| CCc1nc(N)nc(N)c1C#C[C@H](C)c1cc(-c2cc(C)nc(C)c2)ccc1Cl | mouse | plasma | oral | 5 mg/kg | – | 4.55 h |
| O=C1OC2(c3ccccc31)c1cc(I)c(O)c(I)c1Oc1c2cc(I)c(O)c1I | female C57BL/6 mouse | plasma | intraperitoneal | 50 mg/kg | – | 2 h |
| O=c1c2cc(-c3ccc(Cl)cc3)nc(-c3cccnc3)c2ncn1C1CCC(O)CC1 (stereo not drawn) | BALB/c mouse | plasma | oral | 300 mg/kg | single dose | 31.5 h |
| O=C1CCc2ccc(NS(=O)(=O)c3cccc(Oc4ccccc4)c3)cc2N1 | C57BL/6 mouse | brain | oral | 3 mg/kg | – | 3.95 h |
| O=C(c1ccccc1)N1C(c2ccc(OCC3CCN(CCCF)C3)cc2)c2ccc(O)cc2CC12CC2 (stereo not drawn) | C57BL/6 mouse | serum | oral | 25 mg/kg | – | 4.02 h |
| CC[C@H](C)[C@H](NC(=O)[C@H](Cc1ccccc1)NC(=O)[C@H](CCC(=O)O)NC(=O)[C@H](CCCCN)NC(=O)[C@H](C)NC(=O)[C@H](C)NC(=O)[C@H](CCC(N)=O)NC(=O)CNC(=O)[C@H](CCC(=O)O)NC(=O)[C@H](CC(C)C)NC(=O)[C@H](Cc1ccc(O)cc1)NC(=O)[C@H](CO)NC(=O)[C@H](CO)NC(=O)[C@@H](NC(=O)[C@H](CC(=O)O)NC(=O)[C@H](CO)NC(=O)[C@@H](NC(=O)[C@H](Cc1ccccc1)NC(=O)[C@@H](NC(=O)CNC(=O)[C@H](CCC(=O)O)NC(=O)[C@H](C)NC(=O)[C@@H](N)Cc1c[nH]cn1)[C@@H](C)O)[C@@H](C)O)C(C)C)C(=O)N[C@@H](C)C(=O)N[C@@H](Cc1c[nH]c2ccccc12)C(=O)N[C@@H](CC(C)C)C(=O)N[C@H](C(=O)N[C@@H](CCCNC(=N)N)C(=O)NCC(=O)N[C@@H](CCCNC(=N)N)C(=O)NCC(=O)O)C(C)C | male CD-1 mouse | plasma | intravenous | 1 mg/kg | single dose | 0.08 h |
| CCC(=C(c1ccc(Cl)cc1)c1ccc(OCCN2CCOCC2)cc1)c1ccc(OC)cc1 | female C57BL/6 mouse | plasma | oral | 400 mg/kg | single dose | 8.2 h |
| CCC(=O)N(C)c1ccc(Cl)c(Cl)c1 | female C57BL/6 mouse | plasma | intravenous | 2 mg/kg | – | 0.493 h |
| COC(=O)C1OC(Oc2c(-c3ccccc3)oc3cc(O)c(O)c(O)c3c2=O)C(O)C(O)C1O (stereo not drawn) | BALB/c mouse | plasma | oral | 10 mg/kg | single dose | 2.1 h |
| Cc1cc(C)c(S(=O)(=O)N(CC(=O)O)c2ccc(Nc3ccnc(N4CCCC4)n3)cc2)c(C)c1 | nude mouse | tumour | intraperitoneal | 100 mg/kg | single dose, tumour-bearing | 4.05 h |

Some of these lines once more:
| Compound | species | medium | route | dose | setting | half-life |
| --- | --- | --- | --- | --- | --- | --- |
| O=C1CCc2ccc(NS(=O)(=O)c3cccc(Oc4ccccc4)c3)cc2N1 | C57BL/6 mouse | brain | oral | 3 mg/kg | – | 3.95 h |
| Cc1ccc(CN2C(=O)/C(=N\c3ccc(Cl)cc3Br)c3ccccc32)cc1 | C57BL/6 mouse | plasma | intraperitoneal | 20 mg/kg | – | 9.61 h |
| CCOc1c(C(C)(C)O)sc2cnc(Nc3ccc(N4CCC(N5CC6(COC6)C5)CC4)cc3OC)nc12 | male C57BL/6 mouse | plasma | intravenous | 3 mg/kg | – | ~11 h |
| O=C(O)c1ccc(O)c(CO)c1 | male C57BL/6 mouse | plasma | oral | 4 mg/kg | – | 1.24 h |
| COc1ccc2c(c1)CCn1c[n+]3c(c1-2)-c1ccc(OC)cc1CC3 | male C57BL/6 mouse | plasma | intraperitoneal | 10 mg/kg | single dose | 2.3 h |
